Assay results pooled from the literature.
Each numbered part is a random draw from the data of one study; scales do not carry over between parts. Changes are numbered by the printed parent chain.

Study 1
Target: Interferon regulatory factor 7, full length, phosphomimetic (IRF7, Homo sapiens, UniProt Q92985, residues 1-503, S101K/S471D/S472D/S475D/S476D/S477D/S483D/S484D/S487D)
Method: protein-binding microarray
Molecule type: double-stranded DNA, one strand shown
Medium: in vitro
Tested at: 250 nM
Setting: 60-bp whole probe
Added: salmon DNA 0.4 mg/ml
Baseline: random background probes
Direction: higher = stronger binding
Shared flanks, not repeated: GCCTAGCAC … GTCTTGATTCGCTTGACGCTGCTG
Construct (chain): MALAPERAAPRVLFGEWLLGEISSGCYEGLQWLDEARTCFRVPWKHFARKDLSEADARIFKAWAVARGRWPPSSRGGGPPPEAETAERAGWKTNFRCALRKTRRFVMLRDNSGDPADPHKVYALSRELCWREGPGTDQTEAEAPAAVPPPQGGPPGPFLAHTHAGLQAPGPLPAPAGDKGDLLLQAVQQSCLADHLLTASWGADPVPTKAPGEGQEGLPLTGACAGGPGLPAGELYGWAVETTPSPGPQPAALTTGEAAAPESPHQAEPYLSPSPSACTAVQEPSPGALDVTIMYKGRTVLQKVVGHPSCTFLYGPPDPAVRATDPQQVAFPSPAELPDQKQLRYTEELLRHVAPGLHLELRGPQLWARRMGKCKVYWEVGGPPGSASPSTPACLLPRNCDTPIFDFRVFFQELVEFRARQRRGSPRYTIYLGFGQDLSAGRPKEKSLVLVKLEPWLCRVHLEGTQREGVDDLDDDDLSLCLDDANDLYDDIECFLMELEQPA
| Sequence | log fluorescence |
| --- | --- |
| GACGGTTTCCTACTCCTGACGTGCTAG | 1.96 z-score |
| TTCGGTTTCCTTTCCCTTTAGTGCTAG | 5.93 z-score |
| GACGGTCTCCGTCTCGGGACGTGCTAG | -0.272 z-score |
| GTCGGTATCGACTTTCGGGACGTGCTA | 1.59 z-score |
| GACGGTCTTCTACTGCTGACGTGCTAG | -0.441 z-score |
| TTAGGTATCGGTCTCGGTTCGTGCTAG | 4.29 z-score |
| GACGGTTTCGGTTATCGGGACGTGCTA | 10.6 z-score |
| GACGATATCAGTCTCGAGTCGTGCTAG | 1.75 z-score |
| TTAGAACTGGGGTTTCGGTTAGTGCTA | 5.71 z-score |
| AGAAATTTTTTTTCTAACTAGTGCTAG | -0.267 z-score |
| TCCTGTATGGATGTGTCTTAGTGCTAG | -0.309 z-score |
| TCAAATGACCTTCTCAGACTGTGCTAG | -0.458 z-score |
| GACCATCTCAGTATCGAGACGTGCTAG | 0.484 z-score |
| GCACATGAGCCAAGCCTGCCGTGCTAG | -0.298 z-score |
| GAAGGTTTCCTACTGCTGACGTGCTAG | 1.11 z-score |
| GACGGTATGGGGTATCGGGACGTGCTA | -0.366 z-score |
| GACGGTGTCGGTATCGGGACGTGCTAG | -0.287 z-score |
| GACGGTATCGACGTTCGGGACGTGCTA | -0.618 z-score |
| TTAGAGTTCGGGTTTCGATTAGTGCTA | 7.04 z-score |
| ACAGGTTCTCTTTTATTTTTGTGCTAG | 2.29 z-score |
| CACATCTGCTGTGGGAGCACGTGCTAG | -0.223 z-score |
| TCAATTTTAACCCTTATACTGTGCTAG | 0.334 z-score |
| TCAAGTCCCATGTTGCAGACTGTGCTA | 0.913 z-score |
| TCATCTGTCATGTTTGTCACTGTGCTA | 0.141 z-score |
| GACGGCTTCGGACTGGGGACGTGCTAG | -0.352 z-score |

Study 2
Target: Histone acetyltransferase KAT6A, winged helix 1, GST fusion (KAT6A, Homo sapiens, UniProt Q92794, residues 1-85)
Method: protein binding microarray
Molecule type: double-stranded DNA, one strand shown
Medium: in vitro
Tested at: not given
Setting: 8-mer, flanks averaged, mean of 2 arrays, mostly near background
Baseline: not given
Direction: higher = stronger binding
Residues (chain): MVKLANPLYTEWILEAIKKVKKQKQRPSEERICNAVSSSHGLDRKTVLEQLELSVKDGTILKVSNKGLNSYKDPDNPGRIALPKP
| Sequence | E-score |
| --- | --- |
| GAGGGGGA | -0.159 |
| ACAATATC | 0.00483 |
| CGACCTAG | 0.0501 |
| AACGTTGC | -0.0239 |
| AGCGATAG | -0.0633 |
| TCAATTAA | -0.0421 |
| AGTGTGGG | -0.146 |
| CTCAGACA | -0.0605 |
| GGGCCTTA | 0.116 |
| ATGACTCA | -0.0837 |
| TAGACCGA | -0.016 |
| AGGTGCTG | -0.223 |
| AAGCAGCC | -0.0465 |
| GTCACCCA | -0.131 |
| ACCTTCGT | -0.11 |
| GTTGATGA | -0.15 |
| TCTGCTAA | -0.201 |
| AGATGGCT | -0.106 |
| TACCGAAA | -0.0285 |
| AGACCAGG | -0.0995 |
| AAAGGATA | -0.213 |
| CGCCTGGC | 0.296 |
| CCGCCCGC | 0.443 |

Study 3
Target: CCNF, cyclin fold, Cln2 fusion (human)
Method: yeast growth competition, sequencing
Medium: yeast
Setting: strong parent motif
Baseline: not given
Direction: higher = stronger binding
Starting sequence: DTL docking peptide (human); PSSMRKICTYFHR
| Substitution | normalised enrichment score |
| --- | --- |
| M4A | 1.54 |
| F11A | 0.854 |
| H12A | 1.91 |
| R5A | 1.76 |
| T9A | 1.3 |
| S2A | 1.53 |
| R13A | 1.61 |

Study 4
Target: RING finger protein unkempt homolog, zinc fingers 1-6, SBP tag (UNK, Homo sapiens, UniProt Q9C0B0, residues 30-357)
Chain of UniProt Q9C0B0 (30-357, looked up): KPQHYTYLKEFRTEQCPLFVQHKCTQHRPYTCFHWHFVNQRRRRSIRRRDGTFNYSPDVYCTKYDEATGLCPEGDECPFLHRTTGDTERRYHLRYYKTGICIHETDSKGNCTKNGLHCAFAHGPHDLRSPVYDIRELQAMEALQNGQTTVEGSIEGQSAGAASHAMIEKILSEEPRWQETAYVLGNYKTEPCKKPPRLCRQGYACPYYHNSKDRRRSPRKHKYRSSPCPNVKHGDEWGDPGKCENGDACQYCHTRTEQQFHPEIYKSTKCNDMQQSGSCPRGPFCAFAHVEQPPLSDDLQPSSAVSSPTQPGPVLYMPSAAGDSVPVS
Method: RNA Bind-n-Seq
Molecule type: RNA
Medium: in vitro
Tested at: 100 nM
Setting: RNA with constant flanks, vertebrate orthologous sites, ends assumed
Baseline: input RNA pool
Direction: higher = stronger binding
| Sequence | bound/input enrichment |
| --- | --- |
| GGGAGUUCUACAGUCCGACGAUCCAACUCUAUGCUUGAGGGUUCAGAACUCAAAAAGGUUCGCUCCAACUCCCGAAUAUACCAUCGGUAUUUUUUGCUAGAUGCCGACAUGCAGAGCCUGAGGUGGGAGCCAUCUAAGAAGGACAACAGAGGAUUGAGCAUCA | 0.178 ratio |
| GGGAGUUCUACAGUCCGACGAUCUAUCUUAAGGAUGAAACUCUUACACCAGGUGUCACGGGUCUGGAGAAGAGAUGGGUUGUCUAGCUGCUCUUAUAAAUUACUGUCGGUGGAAUACAAUCCUUUAUAUAUCAACAUCACAGUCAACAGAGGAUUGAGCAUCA | 1 ratio |
| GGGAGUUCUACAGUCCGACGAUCCUCUAGUUCUUAACAACCAACCCUCCUAAAAGAUUUAGAAAAGAAGUUUACAACAUAAUCUAGUUUACAGAAAAAUCUUGUGCUAGGAUACUUUUUAAAAAGUAUUUUGAAUAUCAUUAACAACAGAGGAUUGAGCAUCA | 1.08 ratio |
| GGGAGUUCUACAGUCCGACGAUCCAACUCCAUGGUUGAGGGCUCAGAACUCAGAAAGGUUCGCUCCAACUCUAGAAUUUACCAUAGGUAUUUUUUACUGGACGCUGACAUGCAGAGUCUGAGGUGGGAACCGUCGAAGAAGGACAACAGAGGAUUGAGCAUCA | 0.473 ratio |
| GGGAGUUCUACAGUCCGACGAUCCAGUCCUUCCACUUAGAGUUAGCCACAAAUCUGUAGGAUUUAUGACAUAUAUAUCUAGUUGAGUUUAAUAUUUUUAUUAGCCUGUAAAUAAUGAUGGCAUCUUCUACAUUAAAGUAUUGACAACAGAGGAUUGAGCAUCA | 2.78 ratio |
| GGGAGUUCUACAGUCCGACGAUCAGUAUCCCAGGUGUACCGUGUUGGGUUGGCAUUGUACAGAAAUUAACAGCCAUAUUGGUCUAGAAACGUUGGACGUAAUUUUCUCCAUUUGUACAGGGGUUACGCACUGUGUUAAAUACGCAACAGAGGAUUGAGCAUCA | 0.563 ratio |
| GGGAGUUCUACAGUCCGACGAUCGAAGAUGGUGGUUGUACAUUAUUCAUUUAGAAAAUAUAAAAAUUCGUUUUGUUUUGAAGCUAGGUAUUAAUUGGAAUAGCUCUUAUACCCAAGACUGGGACAGCUGUGCCCUUCCUUCCUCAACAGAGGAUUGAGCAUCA | 2.37 ratio |
| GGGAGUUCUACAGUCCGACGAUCGCUGGUGCUUGUCCUCUUCUGAGGAAGAGAUGAAUUGGGGAAACCUGUCUCCUUUUUAUAGUUUCUUUCUAAAUUAUGACCAAAAGAUAUUUUGCUAUUUCUUUCUUUAUAUAUGGACAUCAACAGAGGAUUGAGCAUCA | 1.1 ratio |
| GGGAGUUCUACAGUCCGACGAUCUGAAAAUAGCUUCUGCUCCAUUGAGAGUAAAAAUAGUCCCAUGAAUAGAAAACUCCUAAGUAACUAUUUUUUAAAUAAAAAACGUUAAAUUUUGUAAAUCACCUGCUGCCACAAUACAACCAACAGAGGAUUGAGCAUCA | 0.928 ratio |
| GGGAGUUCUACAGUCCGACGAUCGCUCUAGUUCUUAACAACCGACACUCCUACAAGAUUUAGAAAAAAGUUUACAACAUAAUCUAGUUUACAGAAAAAUCUUGUGCUAGAAUAAUUUUUAAAAGGUAUUUUGAAUACCAUUAACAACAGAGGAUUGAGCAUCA | 1.86 ratio |
| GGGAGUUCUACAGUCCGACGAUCUGUUUGUUUUGCACAUGACAGUGUUUGUAUUGAGGCUCUUCUGAGGAGGAGGGGGUGCUCUACCAGUGGUGCCUGGGUUCCUGGCCUCUAGCGCCCCACCCGCCUCAGCACCCUGCCUGGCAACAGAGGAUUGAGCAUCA | 0.257 ratio |

Study 5
Target: ABI1, truncated, D143A, DHFR fusion (Arabidopsis thaliana)
Method: DHFR PCA, deep sequencing
Medium: yeast
Setting: methotrexate growth selection, single substitutions
Added: (+)-ABA 4.8 µM
Baseline: wild-type fitted maximum
Direction: higher = stronger binding
Starting sequence: PYL1, truncated, DHFR fusion (Arabidopsis thaliana); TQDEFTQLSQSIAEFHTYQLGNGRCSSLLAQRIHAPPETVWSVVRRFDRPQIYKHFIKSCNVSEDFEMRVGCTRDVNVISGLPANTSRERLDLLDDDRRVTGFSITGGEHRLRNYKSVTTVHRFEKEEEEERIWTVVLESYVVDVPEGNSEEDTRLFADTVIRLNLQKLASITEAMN; partner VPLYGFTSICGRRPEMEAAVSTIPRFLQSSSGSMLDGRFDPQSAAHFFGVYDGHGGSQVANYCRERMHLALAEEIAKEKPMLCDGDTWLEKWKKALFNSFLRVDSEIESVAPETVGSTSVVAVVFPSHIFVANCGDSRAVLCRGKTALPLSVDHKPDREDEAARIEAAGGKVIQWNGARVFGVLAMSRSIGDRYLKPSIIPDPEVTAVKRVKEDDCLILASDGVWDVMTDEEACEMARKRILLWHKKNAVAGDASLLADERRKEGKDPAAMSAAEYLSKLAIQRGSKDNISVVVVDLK
| Substitution | relative binding score |
| --- | --- |
| E109T | 58.6% |
| L138R | 2.98% |
| R163L | 3.34% |
| Q31E | 12.8% |
| L20T | 80.6% |
| A35H | -19% |
| S117L | -6.72% |
| T17H | 53.4% |
| V143E | 3.42% |
| R90G | -9.54% |
| E129K | 72.3% |
| S26L | -6.48% |
| Y18W | 65.5% |
| A84Y | 69.6% |
| F56T | -4.19% |
| P36H | 67.2% |
| L20V | 81.9% |
